Measurements from different studies.
Lines come from different studies, so protocols differ.
Organism: Staphylococcus aureus

With `Oc1c(Br)cc(Br)c2nc3cc(C(F)(F)F)ccc3nc12` the MIC was 0.08 µM (broth microdilution; MRSA BAA-44).
`CCCCCCCCCC(=O)NCCCC[C@H](NC(=O)[C@H](CCCCN)NC(=O)[C@@H]1CSCC(=O)N[C@@H](CCCCN)C(=O)N[C@@H](CC(C)C)C(=O)N[C@@H](CCCCN)C(=O)NCCCC[C@@H]2NC(=O)[C@H](CCCCN)NC(=O)[C@H](CC(C)C)NC(=O)[C@H](CCCCN)NC(=O)CSC[C@H](NC(=O)[C@H](CC(C)C)NC(=O)[C@H](CC(C)C)NC(=O)[C@H](CCCCN)NC2=O)C(=O)N[C@@H](CC(C)C)C(=O)N[C@@H](CC(C)C)C(=O)N[C@@H](CC(C)C)C(=O)N1)C(N)=O` has an MIC of 64 µg/mL (broth microdilution; Newman, methicillin-susceptible).
`CC[C@@](C)(NC)C(=O)NC(C)(C)C(=O)NC(C)(C)C(=O)NC(C)(C)C(=O)NCC(=O)NC(C)(C)C(=O)N1CCC[C@@H]1C(=O)N[C@@H](Cc1c[nH]c2ccccc12)C(=O)NC(C)(C)C(=O)N1C[C@H](O)C[C@@H]1C(=O)N[C@@H](C)C(=O)NC(C)(C)C(=O)NCCCC(=O)N[C@@H](CC(C)C)C(=O)N[C@](C)(CC)C(=O)NC(C)(C)C(=O)N[C@](C)(CC)C(=O)N[C@H](CO)Cc1ccccc1` has an MIC of 2 µg/mL (broth microdilution; ATCC 29213; 16 to 20 h, 37 °C, Mueller-Hinton broth).
`Cc1ccc2[nH]c3c(c2c1)CCCC3NCCc1ccc(Br)cc1` (stereo not drawn) gave an MIC of 4 µg/mL (broth microdilution; USA300 JE2 MRSA).
For `CC[C@H](C)[C@H](NC(=O)[C@@H](CCCNC(=N)N)NC(=O)[C@H](CCCNC(=N)N)NC(=O)[C@@H]1CCCN1C(=O)[C@@H]1CCCN1C(=O)[C@H](CCCNC(=N)N)NC(=O)[C@@H]1CCCN1C(=O)[C@H](CCCNC(=N)N)NC(=O)[C@@H]1CCCN1C(=O)[C@H](CCSC)NC(=O)[C@H](Cc1ccc(O)cc1)NC(=O)[C@@H]1CCCN1C(=O)[C@@H]1CCCN1C(=O)[C@H](CCCCN)NC(=O)[C@H](CC(=O)O)NC(=O)[C@@H](N)C(C)C)C(=O)N[C@@H](Cc1ccc(O)cc1)C(=O)N[C@@H](CC(N)=O)C(=O)N[C@H](CCCNC(=N)N)C(N)=O`, the MIC was over 128 µg/mL (broth microdilution; DSM 6247; 18 h, 37 °C, 25% MHB2).
`CC(C)C[C@H]1NC(=O)[C@H](Cc2c[nH]c3ccccc23)NC(=O)[C@@H](C(C)C)NC(=O)[C@@H]2CSC([C@H](C(C)C)NC(=O)[C@@H](C(C)C)NC(=O)[C@H](C(C)C)NC1=O)N2C` gave an MIC of over 100 µg/mL (NCTC 8325, Mueller Hinton broth; 21 h, 37 °C).
For `N=C(N)NCCC[C@@H]1NC(=O)[C@@H](CCCNC(=N)N)NC(=O)[C@H](CCCNC(=N)N)NC(=O)[C@@H](C(c2ccccc2)c2ccccc2)NC(=O)[C@@H](C(c2ccccc2)c2ccccc2)NC(=O)[C@@H](C(c2ccccc2)c2ccccc2)NC(=O)[C@@H](CCCNC(=N)N)NC1=O`, the MIC was 4 µg/mL (1195201, multidrug-resistant).
`CC(C)C[C@H](NC(=O)[C@H](CCCCN)NC(=O)C1CCC=CCCC(NC(=O)[C@H](CCCCN)NC(=O)[C@@H](N)CC(C)C)C(=O)N[C@@H](CCCCN)C(=O)N[C@@H](CC(C)C)C(=O)N[C@@H](CCCCN)C(=O)N2CCC[C@@H]2C(=O)NCC(=O)N[C@@H](CCCCN)C(=O)N[C@@H](CC(C)C)C(=O)N[C@@H](CCCCN)C(=O)N1)C(N)=O` (stereo partly drawn) gave an MIC of 128 µM (broth microdilution; ATCC 29737, Mueller-Hinton broth; 18 h, 37 °C).
With `CN[C@H](CC(C)C)C(=O)N[C@H]1C(=O)N[C@@H](CC(N)=O)C(=O)N[C@H]2C(=O)N[C@H]3C(=O)N[C@H](C(=O)N[C@H](C(=O)O)c4cc(O)cc(O)c4-c4cc3ccc4O)[C@H](O)c3ccc(c(Cl)c3)Oc3cc2cc(c3O[C@@H]2O[C@H](CO)[C@@H](O)[C@H](O)[C@H]2O[C@H]2C[C@](C)(NCc3ccc(OCc4cn(CC(=O)N[C@H](C(=O)N[C@@H](CCN)C(=O)N[C@H]5CCNC(=O)[C@H]([C@@H](C)O)NC(=O)[C@H](CCN)NC(=O)[C@H](CCN)NC(=O)[C@H](CC(C)C)NC(=O)[C@@H](CC(C)C)NC(=O)[C@H](CCN)NC5=O)[C@@H](C)O)nn4)c(OC)c3)[C@H](O)[C@H](C)O2)Oc2ccc(cc2Cl)[C@H]1O` the MIC was 2 µg/mL (broth microdilution; VISA LIM-2, tryptic soy broth; 20 to 24 h, 37 °C, 0.002% polysorbate 80).
With `CC[C@H](C)[C@H](NC(=O)[C@@H](CCCNC(=N)N)NC(=O)[C@H](CCCNC(=N)N)NC(=O)[C@@H]1CCCN1C(=O)[C@@H]1CCCN1C(=O)[C@H](CCCNC(=N)N)NC(=O)[C@@H]1CCCN1C(=O)[C@H](CCCNC(=N)N)NC(=O)[C@@H]1CCCN1C(=O)[C@H](CC(C)C)NC(=O)[C@H](Cc1ccc(O)cc1)NC(=O)[C@H](Cc1c[nH]cn1)NC(=O)[C@@H]1CCCN1C(=O)[C@H](CCCCN)NC(=O)[C@H](CC(=O)O)NC(=O)[C@@H](N)C(C)C)C(=O)N[C@@H](Cc1ccc(O)cc1)C(=O)N[C@@H](CC(N)=O)C(=O)N[C@H](CCCNC(=N)N)C(N)=O` the MIC was over 128 µg/mL (broth microdilution; DSM 6247; 18 h, 37 °C, 25% MHB2).
`CC(C)CCCCCCCCC/C=C/C(=O)N[C@@H](CC(=O)O)C(=O)N[C@H]1CNC(=O)[C@@H]2CCCN2C(=O)[C@H](C(C)C)NC(=O)[C@@H](CN)NC(=O)CNC(=O)[C@H](CC(=O)O)NC(=O)CNC(=O)[C@H](CC(=O)O)NC(=O)[C@H](CC(=O)O)NC(=O)[C@H]2CCCCN2C1=O` gave an MIC of over 128 µg/mL (broth microdilution; VISA LIM strain 2, Mueller-Hinton broth, Mg2+ 10 mg/L; 16 h, with: Ca2+ 0 mM).
For `CN[C@H](CC(C)C)C(=O)N[C@H]1C(=O)N[C@@H](CC(N)=O)C(=O)N[C@H]2C(=O)N[C@H]3C(=O)N[C@H](C(=O)N[C@H](C(=O)NCc4cn(CCCCC(=O)N[C@H](C(=O)N[C@@H](CCN)C(=O)N[C@H]5CCNC(=O)[C@H]([C@@H](C)O)NC(=O)[C@H](CCN)NC(=O)[C@H](CCN)NC(=O)[C@H](CC(C)C)NC(=O)[C@@H](CC(C)C)NC(=O)[C@H](CCN)NC5=O)[C@@H](C)O)nn4)c4cc(O)cc(O)c4-c4cc3ccc4O)[C@H](O)c3ccc(c(Cl)c3)Oc3cc2cc(c3O[C@@H]2O[C@H](CO)[C@@H](O)[C@H](O)[C@H]2O[C@H]2C[C@](C)(N)[C@H](O)[C@H](C)O2)Oc2ccc(cc2Cl)[C@H]1O`, the MIC was 0.79 µM (LIM-2 VISA).
`CC[C@H](C)[C@H](NC(=O)[C@@H]1CCCN1C(=O)CNC(=O)[C@H](CC(C)C)NC(=O)[C@H](CCCCN)NC(=O)[C@H](CCCNC(=N)N)NC(=O)[C@H](Cc1c[nH]c2ccccc12)NC(=O)[C@H](C)NC(=O)[C@H](CC(N)=O)NC(=O)[C@H](CCCCN)NC(=O)[C@H](CC(C)C)NC(=O)[C@H](CCCCN)NC(=O)[C@H](CC(N)=O)NC(=O)[C@H](CCCNC(=N)N)NC(=O)[C@H](C)NC(=O)[C@H](CCCNC(=N)N)NC(=O)[C@H](CCCNC(=N)N)NC(=O)[C@H](Cc1ccccc1)NC(=O)[C@H](Cc1c[nH]c2ccccc12)NC(=O)CN)C(=O)N[C@H](C(=O)NCC(=O)N1CCC[C@H]1C(=O)N[C@@H](CC(C)C)C(=O)N[C@@H](CC(C)C)C(=O)N[C@H](C(=O)N[C@@H](CCCNC(=N)N)C(=O)O)[C@@H](C)O)C(C)C` gave an MIC of 1.1 µg/mL (broth microdilution; ATCC 25923, Mueller-Hinton broth; 16 to 20 h, 37 °C).
With `Oc1c(Br)cc(Br)c2nc3cc(Cl)ccc3nc12` the MIC was 0.1 µM (broth microdilution; MRSA 44; 16 h, 37 °C).
For `C#CCOc1ccc(CN[C@@]2(C)C[C@H](O[C@H]3[C@H](Oc4c5cc6cc4Oc4ccc(cc4Cl)[C@@H](O)[C@@H](NC(=O)[C@@H](CC(C)C)NC)C(=O)N[C@@H](CC(N)=O)C(=O)N[C@H]6C(=O)N[C@H]4C(=O)N[C@H](C(=O)N[C@H](C(=O)NCC(N)=O)c6cc(O)cc(O)c6-c6cc4ccc6O)[C@H](O)c4ccc(c(Cl)c4)O5)O[C@H](CO)[C@@H](O)[C@@H]3O)O[C@@H](C)[C@H]2O)cc1OC`, the MIC was 0.298 µM (MRSA USA300).
`CC(C)C[C@H](NC(=O)[C@@H](NC(=O)[C@H](CCCNC(=N)N)NC(=O)[C@H](CCC(N)=O)NC(=O)[C@H](Cc1ccccc1)NC(=O)[C@H](Cc1ccc(O)cc1)NC(=O)[C@H](CC(N)=O)NC(=O)[C@H](Cc1c[nH]c2ccccc12)NC(=O)[C@@H](NC(=O)[C@H](CCCNC(=N)N)NC(=O)[C@H](CCCCN)NC(=O)[C@@H](N)Cc1ccccc1)C(C)C)C(C)C)C(=O)N[C@H](C(=O)N[C@@H](CCCCN)C(=O)N[C@@H](CCCCN)C(=O)N[C@@H](Cc1ccc(O)cc1)C(N)=O)C(C)C` gave an MIC of 100 µM (broth dilution; ATCC 25923, Mueller-Hinton broth; 24 h, 37 °C).
For `CN[C@H](CC(C)C)C(=O)N[C@H]1C(=O)N[C@@H](CC(N)=O)C(=O)N[C@H]2C(=O)N[C@H]3C(=O)N[C@H](C(=O)N[C@H](C(=O)O)c4cc(O)cc(O)c4-c4cc3ccc4O)[C@H](O)c3ccc(c(Cl)c3)Oc3cc2cc(c3O[C@@H]2O[C@H](CO)[C@@H](O)[C@H](O)[C@H]2O[C@H]2C[C@](C)(NCc3ccc(OCc4cn(CCCCC(=O)N[C@H](C(=O)N[C@@H](CCN)C(=O)N[C@H]5CCNC(=O)[C@H]([C@@H](C)O)NC(=O)[C@H](CCN)NC(=O)[C@H](CCN)NC(=O)[C@H](CC(C)C)NC(=O)[C@@H](CC(C)C)NC(=O)[C@H](CCN)NC5=O)[C@@H](C)O)nn4)c(OC)c3)[C@H](O)[C@H](C)O2)Oc2ccc(cc2Cl)[C@H]1O`, the MIC was 0.093 µM (MRSA USA300).
`CC[C@H](C)[C@H](NC(=O)[C@H](CCCCN)NC(=O)[C@H](Cc1c[nH]c2ccccc12)NC(=O)[C@H](Cc1c[nH]c2ccccc12)NC(=O)[C@H](CCCCN)NC(=O)[C@H](CCCCN)NC(=O)[C@H](CCCCN)NC(=O)[C@H](Cc1c[nH]c2ccccc12)NC(=O)[C@H](CCCCN)NC(=O)[C@H](CCCCN)NC(=O)[C@H](Cc1c[nH]c2ccccc12)NC(=O)[C@H](CCCCN)NC(=O)[C@H](CCCCN)NC(=O)[C@@H](NC(=O)[C@@H](NC(=O)[C@H](CCCCN)NC(=O)[C@@H](N)CCCNC(=N)N)[C@@H](C)CC)[C@@H](C)CC)C(=O)N[C@@H](Cc1c[nH]c2ccccc12)C(=O)N[C@@H](Cc1c[nH]c2ccccc12)C(=O)N[C@@H](CCCCN)C(N)=O` gave an MIC of 1.25 µg/mL (broth microdilution; MRSA 109).
